# Assay results of several laboratories.
# Protein sequences, listed by entry. Tags and fused reporters are not part of them. Lines headed by an entry give the natural chain unless they say otherwise; changes in a name come on top. Residues count along the entry.
# UniProt Q9HCG7, whole entry: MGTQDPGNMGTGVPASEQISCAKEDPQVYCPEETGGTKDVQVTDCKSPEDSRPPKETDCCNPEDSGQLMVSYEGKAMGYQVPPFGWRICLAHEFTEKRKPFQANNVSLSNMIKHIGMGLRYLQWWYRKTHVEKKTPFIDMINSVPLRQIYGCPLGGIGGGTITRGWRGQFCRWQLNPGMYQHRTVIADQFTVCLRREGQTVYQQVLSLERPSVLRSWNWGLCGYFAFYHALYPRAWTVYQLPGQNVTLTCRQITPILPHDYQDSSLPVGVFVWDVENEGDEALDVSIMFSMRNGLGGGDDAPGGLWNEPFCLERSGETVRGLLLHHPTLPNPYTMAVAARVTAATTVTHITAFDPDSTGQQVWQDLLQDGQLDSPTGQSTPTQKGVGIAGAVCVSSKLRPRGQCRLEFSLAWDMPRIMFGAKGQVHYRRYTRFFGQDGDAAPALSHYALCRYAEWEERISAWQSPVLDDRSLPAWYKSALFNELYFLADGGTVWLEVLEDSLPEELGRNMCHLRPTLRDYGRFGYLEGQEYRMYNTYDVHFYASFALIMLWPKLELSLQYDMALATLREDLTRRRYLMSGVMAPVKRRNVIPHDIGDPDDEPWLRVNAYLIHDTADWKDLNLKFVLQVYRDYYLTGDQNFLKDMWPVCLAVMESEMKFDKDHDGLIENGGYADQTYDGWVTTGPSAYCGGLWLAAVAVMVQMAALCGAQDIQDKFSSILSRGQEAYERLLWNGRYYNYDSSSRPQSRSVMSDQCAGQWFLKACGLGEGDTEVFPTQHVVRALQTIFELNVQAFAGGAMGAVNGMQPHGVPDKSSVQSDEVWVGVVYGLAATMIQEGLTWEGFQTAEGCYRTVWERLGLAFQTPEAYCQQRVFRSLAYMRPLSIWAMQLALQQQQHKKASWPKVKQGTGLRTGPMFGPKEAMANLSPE
# UniProt O08529, whole entry: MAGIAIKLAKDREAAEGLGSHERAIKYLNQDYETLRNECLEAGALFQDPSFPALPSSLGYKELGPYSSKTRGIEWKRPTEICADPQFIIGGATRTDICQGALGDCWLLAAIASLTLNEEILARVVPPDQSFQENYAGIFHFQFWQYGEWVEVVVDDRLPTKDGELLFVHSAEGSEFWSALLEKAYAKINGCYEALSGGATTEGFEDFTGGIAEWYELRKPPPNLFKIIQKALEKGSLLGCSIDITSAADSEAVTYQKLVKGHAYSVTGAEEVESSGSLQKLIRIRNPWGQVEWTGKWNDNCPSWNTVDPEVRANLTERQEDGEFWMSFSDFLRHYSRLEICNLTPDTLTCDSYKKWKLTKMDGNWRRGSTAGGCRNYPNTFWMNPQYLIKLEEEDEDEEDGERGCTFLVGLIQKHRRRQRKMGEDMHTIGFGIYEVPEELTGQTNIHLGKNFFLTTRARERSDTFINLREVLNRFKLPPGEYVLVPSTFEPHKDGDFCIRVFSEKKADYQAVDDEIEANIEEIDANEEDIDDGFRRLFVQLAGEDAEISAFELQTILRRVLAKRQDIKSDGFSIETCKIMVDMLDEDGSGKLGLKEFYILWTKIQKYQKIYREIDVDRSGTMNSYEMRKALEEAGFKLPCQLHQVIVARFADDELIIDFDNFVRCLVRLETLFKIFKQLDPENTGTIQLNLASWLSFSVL
# UniProt P41148, 22-804 limits assumed: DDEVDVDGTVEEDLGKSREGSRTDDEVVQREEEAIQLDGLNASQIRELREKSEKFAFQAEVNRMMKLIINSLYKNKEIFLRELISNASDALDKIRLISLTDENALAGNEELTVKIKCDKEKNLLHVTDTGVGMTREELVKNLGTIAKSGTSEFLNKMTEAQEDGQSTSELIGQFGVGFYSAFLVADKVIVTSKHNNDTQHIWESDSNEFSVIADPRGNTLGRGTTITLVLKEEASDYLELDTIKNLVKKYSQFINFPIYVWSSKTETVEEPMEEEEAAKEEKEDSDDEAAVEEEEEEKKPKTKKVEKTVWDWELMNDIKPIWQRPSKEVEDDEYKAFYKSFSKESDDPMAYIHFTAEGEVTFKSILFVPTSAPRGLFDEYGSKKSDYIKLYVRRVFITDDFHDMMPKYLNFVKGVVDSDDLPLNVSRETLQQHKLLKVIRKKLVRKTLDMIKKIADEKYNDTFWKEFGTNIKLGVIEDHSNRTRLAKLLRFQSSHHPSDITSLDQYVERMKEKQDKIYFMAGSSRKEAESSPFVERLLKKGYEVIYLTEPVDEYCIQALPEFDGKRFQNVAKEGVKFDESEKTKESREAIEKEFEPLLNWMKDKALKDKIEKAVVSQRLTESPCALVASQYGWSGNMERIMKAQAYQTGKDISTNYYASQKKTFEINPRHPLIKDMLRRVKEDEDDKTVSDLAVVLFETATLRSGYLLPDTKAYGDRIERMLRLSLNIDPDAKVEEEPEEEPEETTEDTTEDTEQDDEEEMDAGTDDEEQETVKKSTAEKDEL
# UniProt P52895, whole entry: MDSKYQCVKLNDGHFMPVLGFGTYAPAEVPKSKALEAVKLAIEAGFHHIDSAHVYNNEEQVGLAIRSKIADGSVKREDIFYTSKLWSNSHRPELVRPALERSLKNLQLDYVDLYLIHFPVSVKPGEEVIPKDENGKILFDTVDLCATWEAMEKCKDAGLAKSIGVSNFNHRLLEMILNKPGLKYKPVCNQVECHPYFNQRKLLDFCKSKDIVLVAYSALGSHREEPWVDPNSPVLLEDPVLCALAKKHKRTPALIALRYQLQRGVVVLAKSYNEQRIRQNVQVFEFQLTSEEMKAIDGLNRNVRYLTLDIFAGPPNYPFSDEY
# UniProt Q9BY41, whole entry: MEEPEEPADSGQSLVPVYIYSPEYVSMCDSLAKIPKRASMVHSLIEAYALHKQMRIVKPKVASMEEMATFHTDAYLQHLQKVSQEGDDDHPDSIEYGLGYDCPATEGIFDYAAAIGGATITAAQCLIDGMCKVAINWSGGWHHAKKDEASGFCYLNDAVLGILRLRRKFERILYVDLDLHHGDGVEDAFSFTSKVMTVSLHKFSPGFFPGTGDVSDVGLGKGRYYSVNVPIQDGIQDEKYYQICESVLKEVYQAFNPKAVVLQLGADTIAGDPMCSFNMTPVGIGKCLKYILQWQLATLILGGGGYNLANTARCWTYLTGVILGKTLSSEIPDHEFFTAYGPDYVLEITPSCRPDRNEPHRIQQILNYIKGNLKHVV
# UniProt Q9Y251, whole entry, looked up: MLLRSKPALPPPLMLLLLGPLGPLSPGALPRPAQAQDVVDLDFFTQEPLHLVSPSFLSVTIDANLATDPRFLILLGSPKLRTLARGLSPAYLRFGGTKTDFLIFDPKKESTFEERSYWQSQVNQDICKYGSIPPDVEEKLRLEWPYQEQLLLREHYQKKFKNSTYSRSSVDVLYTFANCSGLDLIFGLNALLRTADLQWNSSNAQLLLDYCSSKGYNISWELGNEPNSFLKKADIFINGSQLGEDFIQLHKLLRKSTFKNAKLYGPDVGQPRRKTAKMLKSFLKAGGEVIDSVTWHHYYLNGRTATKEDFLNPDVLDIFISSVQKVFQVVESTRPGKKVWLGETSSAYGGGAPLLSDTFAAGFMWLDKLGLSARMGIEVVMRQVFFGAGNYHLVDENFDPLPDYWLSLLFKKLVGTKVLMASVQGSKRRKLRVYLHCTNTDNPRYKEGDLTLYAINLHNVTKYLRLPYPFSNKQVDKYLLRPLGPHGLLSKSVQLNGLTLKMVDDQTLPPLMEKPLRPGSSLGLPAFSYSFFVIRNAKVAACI
# UniProt P50750, whole entry: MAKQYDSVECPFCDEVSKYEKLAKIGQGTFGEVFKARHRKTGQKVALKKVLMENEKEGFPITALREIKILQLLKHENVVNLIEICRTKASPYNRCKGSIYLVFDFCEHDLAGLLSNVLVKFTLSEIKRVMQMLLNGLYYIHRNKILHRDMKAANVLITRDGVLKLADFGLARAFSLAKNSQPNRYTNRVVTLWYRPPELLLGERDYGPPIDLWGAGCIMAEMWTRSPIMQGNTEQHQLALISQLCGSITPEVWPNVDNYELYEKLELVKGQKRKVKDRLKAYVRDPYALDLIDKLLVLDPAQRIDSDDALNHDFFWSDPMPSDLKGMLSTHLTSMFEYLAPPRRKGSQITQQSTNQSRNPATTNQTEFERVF
# UniProt P45983, whole entry: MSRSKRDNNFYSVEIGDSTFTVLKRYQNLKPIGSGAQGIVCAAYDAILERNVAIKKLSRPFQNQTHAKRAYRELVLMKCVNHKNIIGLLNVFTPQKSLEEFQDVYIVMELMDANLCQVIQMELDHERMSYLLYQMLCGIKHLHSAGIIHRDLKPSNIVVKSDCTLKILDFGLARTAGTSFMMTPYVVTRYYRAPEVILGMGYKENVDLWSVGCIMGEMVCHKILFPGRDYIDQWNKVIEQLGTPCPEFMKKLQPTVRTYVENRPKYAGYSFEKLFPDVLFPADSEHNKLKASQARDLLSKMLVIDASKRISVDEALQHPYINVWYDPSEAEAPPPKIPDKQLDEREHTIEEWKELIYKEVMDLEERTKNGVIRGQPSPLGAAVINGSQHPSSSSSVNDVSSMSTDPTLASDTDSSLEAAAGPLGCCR
# UniProt Q923Y9, whole entry: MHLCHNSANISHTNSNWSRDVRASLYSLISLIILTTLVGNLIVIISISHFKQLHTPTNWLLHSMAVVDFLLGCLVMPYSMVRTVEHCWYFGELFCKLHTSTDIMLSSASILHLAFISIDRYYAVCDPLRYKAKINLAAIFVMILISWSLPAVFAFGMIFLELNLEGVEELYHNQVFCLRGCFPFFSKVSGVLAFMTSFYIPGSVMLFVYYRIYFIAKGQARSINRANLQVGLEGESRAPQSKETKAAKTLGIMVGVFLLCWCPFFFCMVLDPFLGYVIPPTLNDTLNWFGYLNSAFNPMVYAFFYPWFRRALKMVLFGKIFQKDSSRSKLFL
# UniProt O88456, whole entry partner: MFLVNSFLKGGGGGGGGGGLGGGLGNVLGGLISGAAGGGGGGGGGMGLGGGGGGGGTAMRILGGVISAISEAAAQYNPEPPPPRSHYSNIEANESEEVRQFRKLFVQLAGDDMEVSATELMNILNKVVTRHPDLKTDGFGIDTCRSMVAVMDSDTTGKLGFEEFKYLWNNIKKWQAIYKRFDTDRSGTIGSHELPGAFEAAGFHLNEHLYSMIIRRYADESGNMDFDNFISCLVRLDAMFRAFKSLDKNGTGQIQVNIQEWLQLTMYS
# UniProt O60563, whole entry partner: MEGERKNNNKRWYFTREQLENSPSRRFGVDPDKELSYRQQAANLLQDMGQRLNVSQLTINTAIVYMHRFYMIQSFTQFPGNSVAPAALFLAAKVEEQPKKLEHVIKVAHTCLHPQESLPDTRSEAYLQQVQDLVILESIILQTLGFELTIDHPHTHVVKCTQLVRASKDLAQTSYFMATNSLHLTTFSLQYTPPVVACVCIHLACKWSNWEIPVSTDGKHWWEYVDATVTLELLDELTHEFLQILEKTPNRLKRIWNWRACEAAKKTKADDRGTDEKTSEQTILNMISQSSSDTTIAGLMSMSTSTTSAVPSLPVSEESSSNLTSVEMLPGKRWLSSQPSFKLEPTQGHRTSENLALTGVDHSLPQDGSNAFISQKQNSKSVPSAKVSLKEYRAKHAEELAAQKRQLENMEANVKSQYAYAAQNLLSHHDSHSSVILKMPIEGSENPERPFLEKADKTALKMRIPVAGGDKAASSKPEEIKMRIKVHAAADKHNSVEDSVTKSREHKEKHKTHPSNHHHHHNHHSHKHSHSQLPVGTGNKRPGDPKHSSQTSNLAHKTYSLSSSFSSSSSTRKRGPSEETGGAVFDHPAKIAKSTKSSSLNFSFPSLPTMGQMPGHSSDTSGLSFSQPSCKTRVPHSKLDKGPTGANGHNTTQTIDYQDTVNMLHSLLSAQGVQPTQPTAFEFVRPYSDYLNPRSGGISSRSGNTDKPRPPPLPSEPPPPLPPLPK
# Each line is one published result; not all experiments were run side by side.
# GBA2: Beta-glucosidase (GBA2, Homo sapiens, UniProt Q9HCG7)
SMILES,target,test,system,setting,scale,selectivity ratio
CCC(NC(=O)C(CC(C)C)NC(=O)Cc1ccncc1)C(=O)C(=O)NCc1cc(OC)cc(OC)c1 (stereo not shown),"Calpain-2 catalytic subunit (Capn2, Mus musculus, UniProt O08529)","enzyme activity, inhibitor",pons-cerebellum membrane fractions,together with: calcium 2 mM,baseline: IC50 calpain-1 over calpain-2,0.8
OC[C@H]1[C@@H](O)[C@H](O)[C@@H](O)CN1CCCCCOCc1ccc(Br)cc1,GBA2,,,,baseline: GBA1 IC50 over GBA2 IC50,402000
COC(=O)c1c(O)cc(O)c(Cl)c1CCc1ccccc1Cc1ccccc1Cl,"Endoplasmin (HSP90B1, Canis lupus familiaris, UniProt P41148)",fluorescence polarization,,together with: FITC-geldanamycin tracer,baseline: Grp94 over Hsp90α,> 18 fold
O=C(O)c1ccc(Nc2cccc(C(=O)O)c2)cc1,"AKR1C2 (Homo sapiens, UniProt P52895)","enzyme activity, inhibitor",,"together with: S-tetralol, NADP+",baseline: IC50 AKR1C2 over IC50 AKR1C3,12
O=C(CCCCCCN(Cc1ccc2ccccc2c1)Cc1ccc2ccccc2c1)NO,"HDAC8 (Homo sapiens, UniProt Q9BY41)",,,,baseline: IC50 HDAC8 over HDAC1,4.9
OC[C@H]1[C@@H](O)[C@H](O)[C@@H](O)CN1CCCCCOCCc1ccsc1,GBA2,,,,baseline: GCS IC50 over GBA2 IC50,120
O=C([C@H]1O[C@H](O[C@H]2[C@H](O[C@@H]3O[C@H](C(=O)N4CCCC4)[C@@H](O[C@H]4O[C@@H](CNS(=O)(=O)O)[C@@H](OCc5ccc6ccccc6c5)[C@H](OCc5ccc6ccccc6c5)[C@H]4NS(=O)(=O)O)[C@H]3OCc3ccc4ccccc4c3)[C@@H](OCc3ccc4ccccc4c3)[C@H](NS(=O)(=O)O)C[C@@H]2NS(=O)(=O)O)[C@H](NS(=O)(=O)O)[C@@H](OCc2ccc3ccccc3c2)[C@@H]1OCc1ccc2ccccc2c1)N1CCCC1,"Heparanase (HPSE, Homo sapiens, UniProt Q9Y251)",TR-FRET,,,baseline: PF4 IC50 over heparanase IC50,> 100 fold
OCC1C(O)C(O)C(O)CN1CCCC(F)(F)COCc1ccc(-c2ccccc2)cc1 (stereo not shown),GBA2,,,,baseline: GBA1 IC50 over GBA2 IC50,6250
CN1CC[C@H](c2c(O)cc(O)c3c(=O)cc(-c4ccccc4F)oc23)[C@H](O)C1,"Cyclin-dependent kinase 9, with cyclin T1 (CDK9, Homo sapiens, UniProt P50750)","kinase activity, inhibitor",,,baseline: CDK9/cyclin T1 over CDK2/cyclin A,127 fold
C=C1C[C@]2(C(=O)OC)C=C(C(=O)OC(C)(C)C)C(=O)[C@H]1C2 (relative stereo),"MAPK8 (Homo sapiens, UniProt P45983)",,,,baseline: Ki ERK2 over Ki target,> 5 fold
NCCc1ccc(Oc2ccccc2)cc1,"Trace amine-associated receptor 1 (Rattus norvegicus, UniProt Q923Y9)","cAMP production, agonist",,,baseline: rat over mouse potency,7 to 10 fold
OCC1C(O)C(O)C(O)CN1CC(F)(F)CCCOCc1ccc(-c2ccccc2)cc1 (stereo not shown),GBA2,,,,baseline: GCS IC50 over GBA2 IC50,10
CN(C)C(=O)Cn1cc(-c2ccc(-c3cncc4ccncc34)cc2)cn1,other kinases except CDK19,"enzyme activity, SelectScreen",,,baseline: other kinases over CDK8,> 300 fold
